Assay results gathered from unrelated publications.
Each numbered part is a random draw from the data of one study; scales do not carry over between parts. Positions count from the first letter of the parent shown.

Block 1
Target: CCND1, cyclin fold, Cln2 fusion (human)
Method: yeast growth competition, sequencing
Sample: yeast
Setting: strong parent motif
Relative to: not given
Direction: higher = stronger binding
Measurement: normalised enrichment score
Parent: SCAPER docking peptide (human); SNARRSLNFGGST; partner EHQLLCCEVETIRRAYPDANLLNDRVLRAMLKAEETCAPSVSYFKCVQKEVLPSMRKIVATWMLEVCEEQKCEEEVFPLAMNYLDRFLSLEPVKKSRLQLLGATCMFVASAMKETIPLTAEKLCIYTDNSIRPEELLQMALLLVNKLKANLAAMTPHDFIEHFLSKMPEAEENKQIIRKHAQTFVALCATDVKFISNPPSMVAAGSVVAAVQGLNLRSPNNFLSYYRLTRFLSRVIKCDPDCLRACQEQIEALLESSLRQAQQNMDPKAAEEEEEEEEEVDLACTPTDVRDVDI
S6C: 2.76
G10H: 0.275
L7S: -0.0106
T13V: 1.31
A3K: 0.375
G10K: 0.253
T13F: 0.868
A3T: 0.724
L7W: -0.124
R5S: 0.427
F9N: -0.538
S1D: 0.814
G11D: 1.67
G11Q: 0.937
T13I: 1.12
S12C: 1.09
G10D: 1.07
T13H: 0.555
T13L: 1.57
N2K: 0.746
R5N: 0.119
L7E: -0.11
A3E: 1.11
R5E: 0.904
A3F: 0.296

Block 2
Target: Histone acetyltransferase KAT6A, winged helix 2, GST fusion (KAT6A, Homo sapiens, UniProt Q92794, residues 85-181)
Method: protein binding microarray
Form: double-stranded DNA, one strand shown
Sample: in vitro
Concentration: not given
Setting: 8-mer, flanks averaged, mean of 2 arrays, mostly near background
Relative to: not given
Direction: higher = stronger binding
Measurement: E-score
Construct (chain): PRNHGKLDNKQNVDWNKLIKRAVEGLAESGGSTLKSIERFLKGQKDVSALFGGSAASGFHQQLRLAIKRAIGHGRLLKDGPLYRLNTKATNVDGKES
ACGTAACT: -0.311
CTGCATAC: 0.0566
ATAGATGA: -0.0805
AATGTTTG: -0.127
ACCCCCCG: 0.0342
CCCCTCCC: 0.118
ATCGAGGA: 0.07
GCGAGAGA: -0.0569
CTCGATTC: -0.0203
ATGGCCCC: -0.0487
ATGTATAG: -0.0285
CGACCTAC: -0.00811
CTGGGGCA: 0.141
CTCAACGA: -0.01
AACGAATT: -0.0164
CTGGGCCC: 0.0607
ATCCGAGG: -0.0333
AACAGCGC: 0.0586
ATTTGGGC: 0.0645
AGAGCCAA: 0.0405
GGGCACGA: 0.0698
CACAACAA: 0.112
CACTTTCC: -0.102
TGTGCACA: -0.238
GCGCTAAC: -0.00322

Block 3
Target: Ras GTPase-activating protein-binding protein 1, full length (G3BP1, Homo sapiens, UniProt Q13283)
Chain of UniProt Q13283 (whole entry, looked up): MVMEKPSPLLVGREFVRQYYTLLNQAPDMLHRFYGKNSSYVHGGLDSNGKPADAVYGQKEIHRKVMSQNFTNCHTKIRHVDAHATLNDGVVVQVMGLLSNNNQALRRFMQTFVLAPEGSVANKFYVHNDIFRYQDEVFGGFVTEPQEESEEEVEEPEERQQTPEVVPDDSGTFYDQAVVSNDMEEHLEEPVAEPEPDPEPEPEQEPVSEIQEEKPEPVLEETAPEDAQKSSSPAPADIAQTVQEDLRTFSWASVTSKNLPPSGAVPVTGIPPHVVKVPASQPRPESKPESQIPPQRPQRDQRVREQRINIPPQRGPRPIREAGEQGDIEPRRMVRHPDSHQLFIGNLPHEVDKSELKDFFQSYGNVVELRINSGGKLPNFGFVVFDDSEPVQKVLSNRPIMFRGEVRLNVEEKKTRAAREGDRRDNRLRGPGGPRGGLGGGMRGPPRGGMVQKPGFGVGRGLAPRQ
Method: RNA Bind-n-Seq
Form: RNA
Sample: in vitro
Concentration: 200 nM
Setting: whole 134-nt RNA, ends assumed
Added: 150 mM KCl
Relative to: input library
Direction: higher = stronger binding
Measurement: log2 enrichment
All sequences stand within: GGGAGUUCUACAGUCCGACGAUC … UGGAAUUCUCGGGUGUCAAGG
UCCUCAAGUCCUGUGCUACACAUCGUAUGUACCGAAUCGGGAGGAGGGAGGGAAAGUAUUAUGUUACGCCGUUCGGAUCUGCACUUCCAG: 1.44
UCCUGUGCUACACAUCGUAUGUACCGAAUCGGUUUUUGGGGUUUUUGGGGUUUUUGGGGAAAGUAUUAUGUUACGCCGUUCGGAUCUGCA: -0.108
CCUGUGCUACACAUCGUAUGUACCGAAUCGGGGUUUUUGGGGAAAAAGGGGUUUUUGGGGAAAGUAUUAUGUUACGCCGUUCGGAUCUGC: 0.312
CCUGUGCUACACAUCGUAUGUACCGAAUCAAACCCCCCCAAACCCCCCCAAACCCCCAAAAAAGUAUUAUGUUACGCCGUUCGGAUCUGC: 0.673
UAACUUUAGAGGACGAUCUGAUGGAUAUGGCAGUGGACGUGGAUUUGGGGAUGGCUAUAAUGGGUAUGGAGGAGGACCUGGAGGUGGCAA: 0.671
UGGGAGGUGGAUUUUGUUUGUUUUUUUAGCUCAUUUCCAGGGGUGGGAAUUUUUUUUUAAUAUGUGUCAUGAAUAAAGUUGUUUUUGAAA: 0.263
GUCCUGUGCUACACAUCGUAUGUACCGAAUCGGGGAGGGGAAAAAGGGGUUUUUGGGGAAAGUAUUAUGUUACGCCGUUCGGAUCUGCAC: 0.579
CCUCAAGUCCUGUGCUACACAUCGUAUGUACCGAAUCGGCGGGCGGGCGGGGAAAGUAUUAUGUUACGCCGUUCGGAUCUGCACUUCCAG: 0.871
GUCCUGUGCUACACAUCGUAUGUACCGAAUCGGGUUUUUGGGGUUUUUGGGUUUUUGGAAAGUAUUAUGUUACGCCGUUCGGAUCUGCAC: -0.462

Block 4
Target: RNA binding protein fox-1 homolog 2, RRM domain, GST-SBP tag (RBFOX2, Homo sapiens, UniProt O43251-10, residues 100-194)
Method: RNA Bind-n-Seq
Form: RNA
Sample: in vitro
Concentration: 365 nM
Setting: natural RNA segment, single round, ends assumed
Relative to: no-protein control
Direction: higher = stronger binding
Measurement: RBNS enrichment (R)
All sequences stand within: GGGAGUUCUACAGUCCGACGAUC … UGGAAUUCUCGGGUGCCAA
Construct (chain): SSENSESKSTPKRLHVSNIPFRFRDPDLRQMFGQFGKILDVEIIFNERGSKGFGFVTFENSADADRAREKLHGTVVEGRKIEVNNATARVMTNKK
UUAGCAAUUGUUUGUUAAUGUCCUUGGCAAACGUGUACCUGCUUUCCUUCAUUGUUCUCUUCAGGGGCUUUCUUCCACUUUCCUCUUAUGAAACGAAUGUGUUUUUGACU: 0.39
GCACUUACAAGUGCCUGUCUGGAGGGUUCUCAAGUGUCAGCGCCACACAAGUCAUCCUGCCUGGCUGCAGUUAGCUGUCAUUGUCAUUGAAAAUCUUAGUGUCUCCUGGU: 0.256
GUUCUUAAAAUUAUCAACCUUUGUUACGGAUGGGCCUCCACUAGGUGGCUGUGGGUAAAGUCUUGGGGGGAGGAUAGGAAAGGAGACCGGCUGAGCCUCAGGGCUAAUUG: 0.42
CUGUACCUUUAUAUAUAUGUGUGUGUACAUAUAUACAUAUAUAAACUGUAUAGUGUACAUGGUAAUGAUUUAUUGCUAUGCCCCAGAUCCUUAAUGUAGUUCUCAUCCUC: 0.221
GCCUGGGUCUGUCUGAGGAAGGAGGGGGUCCCGCCUUCCACCUCAACACAUCCCUUCAGUGACUCAGAGUCUCAGAAGGAAACCCUGACUCCUGGGGCCAUUUCCUAAUG: 0.212
GGGGGCUGAUGGCUGCCCCUGCGUGGCCUGAGUCCUGGUCCCUCUGAGGCAGUUGACGGGGCAGUCAGAUUUUUAAAGUUUUGUACAAAGUUUUCCUUUGUAAUCACUCC: 0.453
UUAGUUGUAACCAGUAGUAUUCACAUUAAAUCUUGCUUUUUUUCCCCUUAAAAAAAGAAAAAAAUUACCAAACAAUAAACUUGGCUAGACCUUGUUUUGAGGAUUUUACA: 0.603
ACCAGUUGGAGCAGAUGCCUCCCCACCACCAAUUGCCAAAGGUCCAAUAAAAUGCCUCAACCACGGAUCUGCGUGUGUCAGUGAUGCCUAGCCCCGCCUUCCCCAGCAGA: 0.465

Mixed results
PhoQ, residues 284 288 289 292 302 303 ASTSDA — fold induction (PhoP, residues 12 14 15 18 19 HEGLL (Escherichia coli, UniProt P23836); Sort-seq, measured: YFP reporter; E. coli; PhoQ-PhoP variant library, added: 10 µM Mg2+; relative to: high Mg2+ state, higher = stronger signaling): 14.3

Excerpt of the above (block 1):
F9N: -0.538
S1D: 0.814
G11D: 1.67
G11Q: 0.937
T13I: 1.12
S12C: 1.09
G10D: 1.07
T13H: 0.555
T13L: 1.57
